Experimental data of several laboratories.
Compare with care: the assays were run in different laboratories. Numbers after ± are the reported error.

N=C(N)NCCC[C@@H]1NC(=O)[C@H](CCCCNC(=O)CCOCCOCCOCCOCCNC(=O)CC[C@H](NC(=O)[C@H](CCCCNC(=O)c2ccc(NN)nc2)NC(=O)c2ccc(NN)nc2)C(=O)NCCOCCOCCOCCOCCC(=O)NCCCC[C@@H]2NC(=O)[C@@H](Cc3ccccc3)NC(=O)[C@H](CC(=O)O)NC(=O)CNC(=O)[C@H](CCCNC(=N)N)NC2=O)NC(=O)[C@@H](Cc2ccccc2)NC(=O)[C@H](CC(=O)O)NC(=O)CNC1=O [technetium-99m labelled] — tissue uptake (female athymic nude mice, eyes; intravenous, 0.1 MBq, 1 h, U-87 MG glioma xenograft): 1.27 ± 0.18 %ID/g
N=C(N)NCCC[C@@H]1NC(=O)[C@H](CCCCNC(=O)CC[C@H](NC(=O)CCOCCOCCOCCOCCNC(=O)CN2CCN(CC(=O)O)CCN(CC(=O)O)CCN(CC(=O)O)CC2)C(=O)NCCCC[C@@H]2NC(=O)[C@@H](Cc3ccccc3)NC(=O)[C@H](CC(=O)O)NC(=O)CNC(=O)[C@H](CCCNC(=N)N)NC2=O)NC(=O)[C@@H](Cc2ccccc2)NC(=O)[C@H](CC(=O)O)NC(=O)CNC1=O [indium-111 labelled] — tissue uptake (female athymic nude mice, kidney; intravenous, 3 µCi, 72 h, U-87 MG glioma xenograft): 1.44 ± 0.13 %ID/g
CSCC[C@H](NC(=O)[C@H](CC(C)C)NC(=O)[C@H](Cc1c[nH]cn1)NC(=O)CNC(=O)[C@@H](NC(=O)[C@H](C)NC(=O)[C@H](Cc1c[nH]c2ccccc12)NC(=O)[C@H](CCC(N)=O)NC(=O)CNC(=O)[C@H](CO)NC(=O)CNC(=O)CCCCCCCNC(=O)CCC(=O)Nc1ccc(CNC23CNCCNCC(N)(CNCCNC2)CNCCNC3)cc1)C(C)C)C(N)=O [copper-64 labelled] — tissue uptake (female SCID mice, PC-3 xenograft, kidney; intravenous, 0.6 MBq, 1 h): 7.08 ± 0.268 %ID/g
N=C(N)NCCC[C@H](NC(=O)[C@H](CCCCN)NC(=O)[C@H](CCC(N)=O)NC(=O)CCOCCOCCOCCNC(=O)CN1CCN(CC(=O)O)CCN(CC(=O)O)CCN(CC(=O)O)CC1)C(=O)N[C@@H](CCCCN)C(=O)N[C@@H](CCCNC(=N)N)C(=O)N[C@@H](CCCCN)C(=O)N[C@@H](CCCCN)C(=O)N[C@@H](CO)C(=O)N[C@@H](CCCNC(=N)N)C(=O)N[C@@H](Cc1ccc(O)cc1)C(=O)N[C@@H](CCCCN)C(=O)N[C@@H](CO)C(=O)O [copper-64 labelled] — tissue uptake (male C57BL/6 mice, B16-F10 tumour, brain; intravenous, 60 min): 0.06 ± 0.01 %ID/g
N=C(N)NCCC[C@@H]1NC(=O)[C@H](CCCCNC(=O)CCOCCOCCOCCOCCNC(=O)CC[C@H](NC(=O)CCOCCOCCOCCOCCNC(=O)[C@H](CCCCNC(=O)c2ccc(NN)nc2)NC(=O)c2ccc(NN)nc2)C(=O)NCCOCCOCCOCCOCCC(=O)NCCCC[C@@H]2NC(=O)[C@@H](Cc3ccccc3)NC(=O)[C@H](CC(=O)O)NC(=O)CNC(=O)[C@H](CCCNC(=N)N)NC2=O)NC(=O)[C@@H](Cc2ccccc2)NC(=O)[C@H](CC(=O)O)NC(=O)CNC1=O [technetium-99m labelled] — tissue uptake (female athymic nude mice, eyes; intravenous, 0.1 MBq, 1 h, U-87 MG glioma xenograft): 1.09 ± 0.21 %ID/g
N=C(N)NCCC[C@@H]1NC(=O)[C@H](CCCCNC(=O)CCOCCOCCOCCOCCNC(=O)CN2CCN(CC(=O)O)CCN(CC(=O)O)CCN(CC(=O)O)CC2)NC(=O)[C@@H](Cc2ccccc2)NC(=O)[C@H](CC(=O)O)NC(=O)CNC1=O [indium-111 labelled] — tissue uptake (athymic nude mice, female, U-87 MG glioma xenograft, U-87 MG tumour; intravenous, 3 µCi, 4 h): 2.56 ± 0.4 %ID/g
N=C(N)NCCC[C@@H]1NC(=O)[C@H](CCCCNC(=O)CC[C@H](NC(=O)[C@H](CCCCNC(=O)c2ccc(NN)nc2)NC(=O)c2ccc(NN)nc2)C(=O)NCCCC[C@@H]2NC(=O)[C@@H](Cc3ccccc3)NC(=O)[C@H](CC(=O)O)NC(=O)CNC(=O)[C@H](CCCNC(=N)N)NC2=O)NC(=O)[C@@H](Cc2ccccc2)NC(=O)[C@H](CC(=O)O)NC(=O)CNC1=O [technetium-99m labelled] — tissue uptake (female athymic nude mice, brain; intravenous, 0.1 MBq, 1 h, U-87 MG glioma xenograft): 0.12 ± 0.01 %ID/g
N=C(N)NCCC[C@@H]1NC(=O)[C@H](CCCCNC(=O)CC[C@H](NC(=O)CCOCCOCCOCCOCCNC(=O)CC[C@H](NC(=O)CN2CCN(CC(=O)O)CCN(CC(=O)O)CCN(CC(=O)O)CC2)C(=O)NCCOCCOCCOCCOCCC(=O)N[C@@H](CCC(=O)NCCCC[C@@H]2NC(=O)[C@@H](Cc3ccccc3)NC(=O)[C@H](CC(=O)O)NC(=O)CNC(=O)[C@H](CCCNC(=N)N)NC2=O)C(=O)NCCCC[C@@H]2NC(=O)[C@@H](Cc3ccccc3)NC(=O)[C@H](CC(=O)O)NC(=O)CNC(=O)[C@H](CCCNC(=N)N)NC2=O)C(=O)NCCCC[C@@H]2NC(=O)[C@@H](Cc3ccccc3)NC(=O)[C@H](CC(=O)O)NC(=O)CNC(=O)[C@H](CCCNC(=N)N)NC2=O)NC(=O)[C@@H](Cc2ccccc2)NC(=O)[C@H](CC(=O)O)NC(=O)CNC1=O [indium-111 labelled] — tissue uptake (female athymic nude mice, intestine; intravenous, 3 µCi, 24 h, U-87 MG glioma xenograft): 4.04 ± 1.11 %ID/g
CC(C)C[C@H](NC(=O)[C@H](Cc1ccc(O)cc1)NC(=O)[C@@H](CCCNC(=N)N)NC(=O)[C@@H](CO)NC(=O)[C@H](Cc1ccccc1)NC(=O)[C@H](CC1CCCCC1)NC(=O)[C@H](CC(=O)O)NC(=O)CCC(C(=O)O)N1CCCN2CCN(CCCN(CC(=O)O)CC2)CC1)C(=O)N[C@@H](Cc1c[nH]c2ccccc12)C(=O)N[C@@H](CO)C(=O)O (stereo partly shown) [copper-64 labelled] — tissue uptake (female NMRI nude mice, intestine; 1 h p.i.): 3.7 ± 0.8 %ID/g
CSCC[C@H](NC(=O)[C@H](CC(C)C)NC(=O)[C@H](Cc1c[nH]cn1)NC(=O)CNC(=O)[C@@H](NC(=O)[C@H](C)NC(=O)[C@H](Cc1c[nH]c2ccccc12)NC(=O)[C@H](CCC(N)=O)NC(=O)CCCCCCCNC(=O)CCC(=O)Nc1ccc(CNC23CNCCNCC(N)(CNCCNC2)CNCCNC3)cc1)C(C)C)C(N)=O [copper-64 labelled] — tissue uptake (female SCID mice, PC-3 xenograft, liver; intravenous, 0.6 MBq, 4 h): 8.26 ± 0.452 %ID/g

Repeated from above:
N=C(N)NCCC[C@@H]1NC(=O)[C@H](CCCCNC(=O)CC[C@H](NC(=O)[C@H](CCCCNC(=O)c2ccc(NN)nc2)NC(=O)c2ccc(NN)nc2)C(=O)NCCCC[C@@H]2NC(=O)[C@@H](Cc3ccccc3)NC(=O)[C@H](CC(=O)O)NC(=O)CNC(=O)[C@H](CCCNC(=N)N)NC2=O)NC(=O)[C@@H](Cc2ccccc2)NC(=O)[C@H](CC(=O)O)NC(=O)CNC1=O [technetium-99m labelled] — tissue uptake (female athymic nude mice, brain; intravenous, 0.1 MBq, 1 h, U-87 MG glioma xenograft): 0.12 ± 0.01 %ID/g
